Measurements collected from several papers.
Lines come from different studies, so protocols differ. ± gives the spread as reported.
Grin1/Grin2b: Glutamate NMDA receptor; Grin1/Grin2b (Grin1/Grin2b, Rattus norvegicus, UniProt P35439+Q00960)
NQO2: Ribosyldihydronicotinamide dehydrogenase [quinone] (NQO2, Homo sapiens, UniProt P16083)
ALOX5: Polyunsaturated fatty acid 5-lipoxygenase (ALOX5, Homo sapiens, UniProt P09917)

Amino acid sequences for entries named in this document (tags omitted). Residues count along the entry.
UniProt Q00960, 27-1482 limits assumed: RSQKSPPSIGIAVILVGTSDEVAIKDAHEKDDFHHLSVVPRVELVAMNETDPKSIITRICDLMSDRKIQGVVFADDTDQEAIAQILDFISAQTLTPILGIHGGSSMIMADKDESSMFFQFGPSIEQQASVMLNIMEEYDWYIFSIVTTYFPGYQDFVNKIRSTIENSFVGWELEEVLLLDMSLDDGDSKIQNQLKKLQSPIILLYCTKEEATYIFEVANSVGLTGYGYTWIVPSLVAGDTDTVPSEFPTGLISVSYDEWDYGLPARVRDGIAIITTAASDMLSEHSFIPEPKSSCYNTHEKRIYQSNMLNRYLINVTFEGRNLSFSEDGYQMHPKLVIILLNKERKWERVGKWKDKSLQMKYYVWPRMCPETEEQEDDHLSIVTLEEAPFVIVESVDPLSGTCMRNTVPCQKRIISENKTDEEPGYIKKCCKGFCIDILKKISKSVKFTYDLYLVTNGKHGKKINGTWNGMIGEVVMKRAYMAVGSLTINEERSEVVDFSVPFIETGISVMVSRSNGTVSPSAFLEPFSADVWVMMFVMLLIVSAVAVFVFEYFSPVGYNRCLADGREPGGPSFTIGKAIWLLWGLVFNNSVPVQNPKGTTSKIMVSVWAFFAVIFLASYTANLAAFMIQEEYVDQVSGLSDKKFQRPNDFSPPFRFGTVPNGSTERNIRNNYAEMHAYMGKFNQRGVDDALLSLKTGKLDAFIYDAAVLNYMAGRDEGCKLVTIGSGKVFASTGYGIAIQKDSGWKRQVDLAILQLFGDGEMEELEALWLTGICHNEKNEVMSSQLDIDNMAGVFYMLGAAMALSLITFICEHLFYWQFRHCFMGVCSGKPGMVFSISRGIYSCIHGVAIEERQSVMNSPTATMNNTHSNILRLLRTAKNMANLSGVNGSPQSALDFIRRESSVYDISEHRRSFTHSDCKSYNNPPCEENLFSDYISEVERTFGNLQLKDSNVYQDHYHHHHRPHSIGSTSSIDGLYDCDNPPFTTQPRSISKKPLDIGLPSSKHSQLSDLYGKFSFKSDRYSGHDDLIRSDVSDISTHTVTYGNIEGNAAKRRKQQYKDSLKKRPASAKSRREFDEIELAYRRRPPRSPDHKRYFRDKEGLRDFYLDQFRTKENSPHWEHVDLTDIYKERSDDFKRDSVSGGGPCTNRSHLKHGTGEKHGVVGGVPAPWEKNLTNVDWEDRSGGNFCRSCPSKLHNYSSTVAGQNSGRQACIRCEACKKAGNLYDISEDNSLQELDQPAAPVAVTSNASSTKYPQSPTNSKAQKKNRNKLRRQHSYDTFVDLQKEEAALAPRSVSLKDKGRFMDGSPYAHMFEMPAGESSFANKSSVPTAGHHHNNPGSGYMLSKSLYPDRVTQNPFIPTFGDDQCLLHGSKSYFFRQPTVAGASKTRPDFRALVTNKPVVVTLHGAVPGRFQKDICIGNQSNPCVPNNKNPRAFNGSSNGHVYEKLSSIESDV
UniProt P16083, whole entry: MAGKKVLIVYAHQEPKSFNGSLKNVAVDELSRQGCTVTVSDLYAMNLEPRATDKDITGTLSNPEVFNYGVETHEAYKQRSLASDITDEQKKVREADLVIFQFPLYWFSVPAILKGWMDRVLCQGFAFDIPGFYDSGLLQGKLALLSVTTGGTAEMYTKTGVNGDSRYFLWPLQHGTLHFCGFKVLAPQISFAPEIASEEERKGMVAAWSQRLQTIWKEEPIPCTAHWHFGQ
UniProt P09917, whole entry: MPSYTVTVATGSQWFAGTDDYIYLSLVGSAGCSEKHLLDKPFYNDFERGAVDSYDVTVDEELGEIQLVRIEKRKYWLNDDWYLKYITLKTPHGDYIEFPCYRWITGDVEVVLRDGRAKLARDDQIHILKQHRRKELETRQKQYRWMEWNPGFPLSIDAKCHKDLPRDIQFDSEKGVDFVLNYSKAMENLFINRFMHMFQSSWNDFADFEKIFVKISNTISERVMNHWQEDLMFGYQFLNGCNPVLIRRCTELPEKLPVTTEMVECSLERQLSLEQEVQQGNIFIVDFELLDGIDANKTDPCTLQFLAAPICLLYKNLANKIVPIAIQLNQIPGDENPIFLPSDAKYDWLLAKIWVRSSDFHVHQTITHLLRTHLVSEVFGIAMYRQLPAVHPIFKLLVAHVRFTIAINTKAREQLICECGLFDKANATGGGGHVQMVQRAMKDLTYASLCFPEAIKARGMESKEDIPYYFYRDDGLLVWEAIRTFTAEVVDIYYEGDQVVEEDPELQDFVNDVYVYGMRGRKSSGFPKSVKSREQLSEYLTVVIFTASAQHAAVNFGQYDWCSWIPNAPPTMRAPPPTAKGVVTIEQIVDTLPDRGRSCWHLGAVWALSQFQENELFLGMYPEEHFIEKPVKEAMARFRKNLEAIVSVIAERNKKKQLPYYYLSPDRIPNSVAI
UniProt Q00959, 23-1464 limits assumed: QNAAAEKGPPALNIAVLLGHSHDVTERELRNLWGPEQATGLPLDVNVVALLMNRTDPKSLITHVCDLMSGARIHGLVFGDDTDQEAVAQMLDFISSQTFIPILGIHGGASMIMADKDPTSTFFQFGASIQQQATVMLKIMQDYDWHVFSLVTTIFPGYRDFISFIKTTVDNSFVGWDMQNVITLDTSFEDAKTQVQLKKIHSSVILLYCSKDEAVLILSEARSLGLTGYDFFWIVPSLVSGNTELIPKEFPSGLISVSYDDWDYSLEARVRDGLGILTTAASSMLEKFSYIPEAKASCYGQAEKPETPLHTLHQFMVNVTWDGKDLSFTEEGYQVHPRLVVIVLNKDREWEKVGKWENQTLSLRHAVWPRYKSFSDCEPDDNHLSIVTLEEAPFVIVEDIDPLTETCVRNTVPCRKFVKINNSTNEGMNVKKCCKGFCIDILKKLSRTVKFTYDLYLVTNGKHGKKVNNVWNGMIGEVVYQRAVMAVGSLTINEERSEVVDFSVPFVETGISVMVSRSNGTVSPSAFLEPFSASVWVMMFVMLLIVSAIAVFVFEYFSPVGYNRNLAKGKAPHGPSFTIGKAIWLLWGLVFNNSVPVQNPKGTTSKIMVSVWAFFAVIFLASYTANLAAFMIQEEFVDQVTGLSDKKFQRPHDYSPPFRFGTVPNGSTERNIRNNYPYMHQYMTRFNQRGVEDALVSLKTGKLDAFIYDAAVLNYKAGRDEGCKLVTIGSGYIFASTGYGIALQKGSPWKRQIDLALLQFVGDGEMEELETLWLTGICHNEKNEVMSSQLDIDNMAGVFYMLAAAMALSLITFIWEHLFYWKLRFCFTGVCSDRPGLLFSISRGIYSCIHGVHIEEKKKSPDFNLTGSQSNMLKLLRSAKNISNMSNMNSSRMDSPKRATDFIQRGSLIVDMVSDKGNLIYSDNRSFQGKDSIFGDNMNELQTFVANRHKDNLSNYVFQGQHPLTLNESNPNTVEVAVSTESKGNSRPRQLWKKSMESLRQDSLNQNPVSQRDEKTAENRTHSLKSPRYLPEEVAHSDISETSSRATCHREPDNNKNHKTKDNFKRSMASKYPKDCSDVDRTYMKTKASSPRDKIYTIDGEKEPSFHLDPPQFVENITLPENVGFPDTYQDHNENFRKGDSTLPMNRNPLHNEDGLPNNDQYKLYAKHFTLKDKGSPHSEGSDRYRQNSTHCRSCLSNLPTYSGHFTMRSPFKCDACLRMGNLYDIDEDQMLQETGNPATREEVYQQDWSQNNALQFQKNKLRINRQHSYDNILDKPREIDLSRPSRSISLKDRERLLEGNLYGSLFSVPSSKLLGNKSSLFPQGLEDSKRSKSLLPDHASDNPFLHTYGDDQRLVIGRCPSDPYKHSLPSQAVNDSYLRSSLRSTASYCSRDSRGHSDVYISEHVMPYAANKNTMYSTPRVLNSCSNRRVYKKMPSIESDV
UniProt A0AAA9TD94, 1-1441: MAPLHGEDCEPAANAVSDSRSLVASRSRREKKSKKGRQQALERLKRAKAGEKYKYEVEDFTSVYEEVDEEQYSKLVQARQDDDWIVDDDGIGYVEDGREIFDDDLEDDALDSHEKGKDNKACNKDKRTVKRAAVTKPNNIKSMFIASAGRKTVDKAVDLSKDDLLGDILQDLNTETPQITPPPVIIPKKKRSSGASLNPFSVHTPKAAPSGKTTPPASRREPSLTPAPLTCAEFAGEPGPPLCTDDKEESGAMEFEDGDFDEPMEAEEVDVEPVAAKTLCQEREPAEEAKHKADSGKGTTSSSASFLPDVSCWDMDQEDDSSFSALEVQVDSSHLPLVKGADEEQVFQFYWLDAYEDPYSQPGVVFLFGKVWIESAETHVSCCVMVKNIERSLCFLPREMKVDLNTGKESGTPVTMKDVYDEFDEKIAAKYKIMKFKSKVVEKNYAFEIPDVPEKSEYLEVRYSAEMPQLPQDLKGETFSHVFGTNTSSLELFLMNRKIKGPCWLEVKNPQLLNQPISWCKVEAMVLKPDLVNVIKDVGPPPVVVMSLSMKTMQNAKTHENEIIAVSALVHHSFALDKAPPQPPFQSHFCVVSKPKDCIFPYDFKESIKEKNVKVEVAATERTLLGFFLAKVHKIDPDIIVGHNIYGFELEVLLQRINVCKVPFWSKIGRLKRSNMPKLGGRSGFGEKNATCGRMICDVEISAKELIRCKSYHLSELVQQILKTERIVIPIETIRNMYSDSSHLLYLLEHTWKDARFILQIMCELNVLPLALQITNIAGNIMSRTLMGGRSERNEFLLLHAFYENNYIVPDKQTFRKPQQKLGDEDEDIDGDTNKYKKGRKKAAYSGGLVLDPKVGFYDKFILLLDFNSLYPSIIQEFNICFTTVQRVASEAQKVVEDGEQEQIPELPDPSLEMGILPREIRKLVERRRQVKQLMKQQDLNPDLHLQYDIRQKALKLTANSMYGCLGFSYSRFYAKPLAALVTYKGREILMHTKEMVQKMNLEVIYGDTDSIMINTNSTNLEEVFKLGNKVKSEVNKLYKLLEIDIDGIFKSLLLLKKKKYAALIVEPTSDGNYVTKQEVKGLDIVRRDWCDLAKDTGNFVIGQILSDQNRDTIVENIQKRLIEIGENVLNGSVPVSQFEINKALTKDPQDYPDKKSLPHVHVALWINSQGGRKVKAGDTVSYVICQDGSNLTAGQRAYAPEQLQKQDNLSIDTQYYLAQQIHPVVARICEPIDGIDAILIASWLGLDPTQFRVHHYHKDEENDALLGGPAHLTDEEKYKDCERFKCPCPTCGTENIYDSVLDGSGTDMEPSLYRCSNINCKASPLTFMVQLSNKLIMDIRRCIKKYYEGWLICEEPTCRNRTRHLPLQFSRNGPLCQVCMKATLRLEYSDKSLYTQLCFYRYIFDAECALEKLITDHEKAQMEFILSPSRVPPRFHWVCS
UniProt P51570, whole entry: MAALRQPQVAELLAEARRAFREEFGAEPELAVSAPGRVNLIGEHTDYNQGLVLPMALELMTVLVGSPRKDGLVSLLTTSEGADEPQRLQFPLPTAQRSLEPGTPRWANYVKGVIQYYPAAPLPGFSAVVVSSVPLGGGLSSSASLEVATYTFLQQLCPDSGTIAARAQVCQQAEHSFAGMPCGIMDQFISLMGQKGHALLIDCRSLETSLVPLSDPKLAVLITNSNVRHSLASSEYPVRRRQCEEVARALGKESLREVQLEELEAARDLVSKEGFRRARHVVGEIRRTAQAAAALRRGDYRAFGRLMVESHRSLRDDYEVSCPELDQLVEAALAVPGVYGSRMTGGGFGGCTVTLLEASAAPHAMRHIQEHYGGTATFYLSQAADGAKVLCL
UniProt P28072, 35-239 limits assumed: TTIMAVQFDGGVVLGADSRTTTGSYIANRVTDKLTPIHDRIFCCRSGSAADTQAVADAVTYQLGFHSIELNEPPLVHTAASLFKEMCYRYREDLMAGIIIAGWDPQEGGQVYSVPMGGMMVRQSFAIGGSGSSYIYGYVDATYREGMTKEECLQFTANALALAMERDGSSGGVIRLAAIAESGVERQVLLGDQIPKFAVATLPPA
UniProt P18440, whole entry: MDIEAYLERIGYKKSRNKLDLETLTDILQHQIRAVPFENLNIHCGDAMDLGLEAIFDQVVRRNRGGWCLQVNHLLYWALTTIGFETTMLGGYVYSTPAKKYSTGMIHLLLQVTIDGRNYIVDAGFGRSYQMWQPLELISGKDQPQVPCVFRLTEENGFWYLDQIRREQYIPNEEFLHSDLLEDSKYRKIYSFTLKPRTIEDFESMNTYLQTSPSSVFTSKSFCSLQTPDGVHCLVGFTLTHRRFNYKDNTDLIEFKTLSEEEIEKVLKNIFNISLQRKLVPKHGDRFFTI
UniProt Q16539, whole entry: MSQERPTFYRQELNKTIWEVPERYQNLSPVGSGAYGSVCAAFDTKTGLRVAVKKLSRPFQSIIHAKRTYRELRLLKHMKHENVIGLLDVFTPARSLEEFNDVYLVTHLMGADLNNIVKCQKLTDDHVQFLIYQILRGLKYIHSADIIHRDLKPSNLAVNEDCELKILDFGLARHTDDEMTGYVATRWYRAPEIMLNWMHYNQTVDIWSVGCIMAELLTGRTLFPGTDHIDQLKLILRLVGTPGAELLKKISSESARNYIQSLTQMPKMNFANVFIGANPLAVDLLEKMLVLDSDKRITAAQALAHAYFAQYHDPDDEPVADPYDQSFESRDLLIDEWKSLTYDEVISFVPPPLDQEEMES
UniProt O15151, 23-111 limits assumed: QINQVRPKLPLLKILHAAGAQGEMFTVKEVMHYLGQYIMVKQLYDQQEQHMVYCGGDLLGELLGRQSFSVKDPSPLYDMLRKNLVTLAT

| Structure (SMILES) | target or system | assay | test system | setting | quantity | result |
| --- | --- | --- | --- | --- | --- | --- |
| CCCCCN(CCc1ccc(Cl)c(Cl)c1)C[C@H](O)COc1ccc(NS(C)(=O)=O)cc1 | Grin1/Grin2b |  |  | pH 7.6 | IC50 | 0.6 µM |
| NC12CC3CC(F)(CC(C1)c1ccccc13)C2 | Glutamate NMDA receptor; Grin1/Grin2a (Grin1/Grin2a, Rattus norvegicus, UniProt P35439+Q00959) | ion current, channel blocker, whole-cell patch clamp | tsA201 cells | 0.2 mM Mg2+, -65 mV, with: 1 mM glutamate | IC50 | 21.4 ± 0.56 µM |
| CC/C=C\C/C=C\CCC/C=C/C=C/C=C\CCCC(=O)O | DNA polymerase (POLA1, Bos taurus, UniProt A0AAA9TD94) | enzyme activity, inhibitor |  | calf polymerase alpha | IC50 | 14.5 ± 0.9 µM |
| COc1ccc2[nH]c(C(=O)Nc3ccc(C(CC(C)C)=NNC(=N)N)cc3)cc2c1 | CHEK1 (Homo sapiens, UniProt O14757) | kinase activity, inhibitor, IMAP fluorescence polarization |  |  | IC50 | 59 µM |
| Cc1ccc(S(=O)(=O)Nc2ccccc2C(=O)Nc2nc(-c3ccccc3)cs2)cc1 | Galactokinase (GALK1, Homo sapiens, UniProt P51570) | enzyme activity, inhibitor, Kinase-Glo luminescence |  | with: ATP 35 µM, galactose 100 µM | IC50 | 3.5 µM |
| CON(C1CC[C@@]2(C)[C@H](CC[C@@H]3[C@@H]2CC[C@]2(C)[C@@H](c4ccc(=O)oc4)CC[C@]32O)C1)C1OCC(O)C(O)C1O (stereo partly shown) | Sodium/potassium-transporting ATPase subunit alpha-1, with beta-1 subunit (Atp1a1, Rattus norvegicus, UniProt P06685) | Na+/K+ pump current, inhibitor, two-electrode voltage clamp | Xenopus oocytes expressing rat α1/β1 | holding potential -60 mV, endogenous current subtracted | IC50 | 0.063 µM |
| CCOC(=O)c1c(-c2ccc(Cl)cc2Cl)n(-c2nc(-c3ccc(Cl)cc3)c3c(NC(=O)c4ccccc4)nnc-3[nH]2)[nH]c1=O | SK-MEL-28 | SRB |  | 10 µM | cell growth | 14.3% |
| CC(C)CC(NC(=O)C(Cc1ccccc1)NC(=O)c1cnc(C(=O)NC(Cc2ccccc2)C(=O)NC(CC(C)C)B(O)O)cn1)B(O)O (stereo not shown) | PSMB6 (Homo sapiens, UniProt P28072) | caspase-like activity, inhibitor, Proteasome-Glo | MM1.S | 24 h | IC50 | 0.0092 ± 0.00032 µM |
| CC(=O)C12NC(C)(C)CC1(C)C(=O)C1=C2c2c(c3c4n2C(C)(C)CC2=C4C4(CC(C)(C)NC(C)(C4)C2=O)CC3(C)C)C(=O)C(C)(C)N1 (single isomer, unassigned) | SCN2A (Homo sapiens, UniProt Q99250) | sodium current, inhibitor |  |  | IC50 | 23.9 ± 2.7 µM |
| CCN(CC)CCCC(C)Nc1cc(-c2ccccc2)nc2cc(OC)ccc12 (stereo not shown) | NQO2 | enzyme activity, inhibitor |  | with: 200 µM NRH, DCPIP, 2 µM BSA | IC50 | 0.86 ± 0.15 µM |
| CCOC(=O)Oc1ccc2c(c1OC(=O)OCC)C(=O)c1ccccc1C2=O | NAT1 (Homo sapiens, UniProt P18440) | O-acetyltransferase activity, inhibitor | MDA-MB-231 cell lysate | with: 100 µM N-hydroxy-4-aminobiphenyl and 1 mM acetyl-CoA | IC50 | 1.03 ± 0.24 µM |
| COc1ccc(C=CC(=O)c2ccc(O)cc2)c(O)c1 | ALOX5 | enzyme activity | cell-free |  | IC50 | 4.39 µM |
| N#Cc1c(-c2ccc(Cl)cc2Cl)n(-c2nc(-c3ccc(Cl)cc3)c3c(NC(=O)c4ccccc4)nnc-3[nH]2)[nH]c1=O | SF-539 | SRB |  | 10 µM | cell growth | -63.7% |
| CCCN(CCc1ccc(Cl)c(Cl)c1)C[C@H](O)COc1ccc(NS(C)(=O)=O)cc1 | Grin1/Grin2b |  |  | pH 6.9 | IC50 | 0.094 µM |
| CCOC(=O)CCC(=O)Oc1cccc2c1C(=O)c1c(O)cccc1C2=O | NAT2 (Homo sapiens, UniProt P11245) | enzyme activity, inhibitor | recombinant in yeast lysate | with: 10 µM sulfamethazine and 100 µM acetyl-CoA | IC50 | > 2000 µM |
| CC(C)C[C@H](NC(=O)[C@H](C)NC(=O)[C@H](CCCNC(=N)N)NC(=O)[C@H](CCCNC(=N)N)NC(=O)[C@H](CCCNC(=N)N)NC(=O)[C@H](C)NC(=O)[C@H](CC(C)C)NC(=O)[C@H](CCCNC(=N)N)NC(=O)[C@H](CO)NC(=O)[C@H](CCCCN)NC(=O)[C@H](CO)NC(=O)Cn1cc(COC(=O)[C@]2(C)C=C(C(=O)OC(C)(C)C)C(=O)CC2)nn1)C(=O)O | MAPK14 (Homo sapiens, UniProt Q16539) | enzyme activity, inhibitor, D-SENSOR |  | 0.03048 µM | normalized kinase activity | 0.942 |
| C=C(C)C(=O)Nc1ccc(-c2c(-c3ccc(Oc4nccc(C)n4)c(F)c3)c3c(N)ncnc3n2C)cc1 | ESS-1 | cell growth, CellTiter-Glo |  | 120 h | IC50 | 0.691 µM |
| COc1cccc([C@@H]2N=C(c3ccc(OC)cc3OC(C)C)N(C(=O)N3CCNC(=O)C3)[C@@H]2c2ccc(Cl)cc2)c1 (relative stereo) | Protein Mdm4, N-terminal domain (MDM4, Homo sapiens, UniProt O15151) | MdmX-p53 binding, fluorescence polarization |  | MdmX residues 23-111 | IC50 | 24.9 µM |
| COc1ccc2c(c1)OC(c1ccc(O)cc1)CC2 (stereo not shown) | ALOX5 | 5-LOX product formation, RP-HPLC | human PMNL | with: A23187 and arachidonic acid | IC50 | 5.7 ± 0.9 µM |
| CN(C)CCNC(=O)c1cccc2ccc(-c3ccc(-c4ccccc4)cc3)nc12 | NQO2 | enzyme activity, inhibitor |  | with: 200 µM NRH, DCPIP, 2 µM BSA | IC50 | 0.08 ± 0.008 µM |
| COc1cc(O)ccc1C(=O)C=Cc1ccc(O)cc1 | ALOX5 | enzyme activity | cell-free |  | IC50 | 6.5 µM |
| CCOC(=O)C(C)Oc1ccc2c(=O)n(CC(=O)Nc3ccc4c(c3)OCCO4)ccc2c1 (stereo not shown) | RARA (Homo sapiens, UniProt P10276) | inverse agonist, Gal4 UAS-luciferase reporter | HEK293T cells |  | IC50 | 0.36 µM |
| CN(C)CCNC(=O)c1cc([N+](=O)[O-])cc2ccc(-c3ccccc3)nc12 | NQO2 | enzyme activity, inhibitor |  | no BSA, with: 200 µM NRH, DCPIP | IC50 | 0.04 ± 0.01 µM |
| CC(C)N(CCc1ccc(Cl)c(Cl)c1)C[C@H](O)COc1ccc(NS(C)(=O)=O)cc1 | Grin1/Grin2b |  |  | pH 6.9 | IC50 | 0.19 µM |
| Cc1ccc(-c2n[nH]cc2-c2ccnc3ccccc23)nc1 | YCK2 (Candida albicans, UniProt A0A1D8PKB4) | kinase activity, inhibitor, ADP-Glo |  | with: ATP 20 µM | IC50 | 4.7 µM |

A few entries again:
| Structure (SMILES) | target or system | assay | test system | setting | quantity | result |
| --- | --- | --- | --- | --- | --- | --- |
| CC(C)N(CCc1ccc(Cl)c(Cl)c1)C[C@H](O)COc1ccc(NS(C)(=O)=O)cc1 | Grin1/Grin2b |  |  | pH 6.9 | IC50 | 0.19 µM |
| Cc1ccc(-c2n[nH]cc2-c2ccnc3ccccc23)nc1 | YCK2 (Candida albicans, UniProt A0A1D8PKB4) | kinase activity, inhibitor, ADP-Glo |  | with: ATP 20 µM | IC50 | 4.7 µM |
| CC(=O)C12NC(C)(C)CC1(C)C(=O)C1=C2c2c(c3c4n2C(C)(C)CC2=C4C4(CC(C)(C)NC(C)(C4)C2=O)CC3(C)C)C(=O)C(C)(C)N1 (single isomer, unassigned) | SCN2A (Homo sapiens, UniProt Q99250) | sodium current, inhibitor |  |  | IC50 | 23.9 ± 2.7 µM |
